# Measured values from different studies.
# Parts stem from different laboratories: compare values within a part only. Substitutions count along the parent as printed.

# Block 1
# Target: CCNF, cyclin fold, Cln2 fusion (human)
# Method: yeast growth competition, sequencing
# Sample: yeast
# Notes: strong parent motif
# Relative to: not given
# Reading: higher = stronger binding
# Starting sequence: WEE1 docking peptide (human); HKTFRKLRLFDTP; partner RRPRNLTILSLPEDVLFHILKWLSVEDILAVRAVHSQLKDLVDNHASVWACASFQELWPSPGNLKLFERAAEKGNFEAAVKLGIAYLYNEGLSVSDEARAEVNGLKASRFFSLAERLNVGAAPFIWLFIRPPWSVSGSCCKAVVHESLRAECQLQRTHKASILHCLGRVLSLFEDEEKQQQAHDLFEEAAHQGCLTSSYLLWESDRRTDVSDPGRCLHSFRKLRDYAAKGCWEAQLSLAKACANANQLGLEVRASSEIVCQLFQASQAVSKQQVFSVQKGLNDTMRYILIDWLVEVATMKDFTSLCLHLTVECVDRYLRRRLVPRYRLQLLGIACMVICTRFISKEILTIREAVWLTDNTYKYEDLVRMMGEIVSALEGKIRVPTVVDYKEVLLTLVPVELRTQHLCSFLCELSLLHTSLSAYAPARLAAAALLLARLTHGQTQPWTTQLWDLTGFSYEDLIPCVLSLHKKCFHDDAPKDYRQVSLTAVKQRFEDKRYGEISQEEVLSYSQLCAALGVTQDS
Substitution,normalised enrichment score
L7H,0.94
K6C,2.69
T12L,1.94
R8M,3.33
R5A L7A,1.59
D11H,0.642
R5A,0.27
L9W,2.54
R5K,1.46
T12G,3.49
R5L,1.95
F4G,2.11

# Block 2
# Target: OGT, full length, His-tagged (human)
# Method: phage display, sequencing
# Sample: in vitro
# Concentration: 1 µg OGT
# Notes: single substitutions, 15-mer displayed peptide, unchanged parent 19.6
# Relative to: input library
# Reading: higher = stronger binding
# Starting sequence: peptide; TAPFYPPAYQIQVFK
Substitution,fold enrichment [fold]
TAPFYSPAYQIQVFK [P6S],1.3
TAPFYPPAHQIQVFK [Y9H],0.449
TAPFYPPAYQIQVVK [F14V],9.26
TAPFYPPAYQKQVFK [I11K],0.545
TAPFYPPAYQIQVFD [K15D],2.49
TAPFYPPAYQIQVNK [F14N],27.8
TAPFVPPAYQIQVFK [Y5V],0.776
TAPFYPPAYQNQVFK [I11N],0.719

# Block 3
# Target: ABI1, truncated, D143A, DHFR fusion (Arabidopsis thaliana)
# Method: DHFR PCA, deep sequencing
# Sample: yeast
# Notes: methotrexate growth selection, single substitutions
# With: (+)-ABA 0 µM
# Relative to: wild-type fitted maximum
# Reading: higher = stronger binding
# Starting sequence: PYL1, truncated, DHFR fusion (Arabidopsis thaliana); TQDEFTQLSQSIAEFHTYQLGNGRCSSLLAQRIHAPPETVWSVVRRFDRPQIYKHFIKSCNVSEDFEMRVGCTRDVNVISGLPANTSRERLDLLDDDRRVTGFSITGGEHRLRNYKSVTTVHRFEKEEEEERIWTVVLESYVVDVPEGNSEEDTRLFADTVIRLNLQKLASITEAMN; partner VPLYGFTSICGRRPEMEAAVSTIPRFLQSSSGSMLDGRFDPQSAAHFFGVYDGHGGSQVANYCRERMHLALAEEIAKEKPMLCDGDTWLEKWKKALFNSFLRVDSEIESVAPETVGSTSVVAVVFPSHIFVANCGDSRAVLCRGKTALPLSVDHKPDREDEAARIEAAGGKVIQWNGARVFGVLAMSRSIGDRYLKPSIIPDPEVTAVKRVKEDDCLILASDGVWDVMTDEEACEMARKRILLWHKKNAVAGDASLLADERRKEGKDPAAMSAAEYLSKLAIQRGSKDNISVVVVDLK
Substitution,relative binding score
S87D,-1.01%
L20E,30.5%
D65T,5.16%
L82Q,6.68%
L112M,17.4%
S27G,50%

# Further values, each from its own experiment
Molecule,target,test,test system,conditions,how to read,quantity,result
"PhoQ, residues 284 288 289 292 302 303 TVTVVA","PhoP, residues 12 14 15 18 19 GHCSL (Escherichia coli, UniProt P23836)","Sort-seq, item: YFP reporter",E. coli,"PhoQ-PhoP variant library, with: 10 µM Mg2+","relative to: high Mg2+ state, higher = stronger signaling",fold induction,9.45

# Excerpt of the above (block 1):
Substitution,normalised enrichment score
T12L,1.94
R5K,1.46
F4G,2.11
